Measurements gathered from unrelated publications.
Protocols differ between the studies behind these lines. Converted amounts (≈) assume the structure as drawn.
Chain of UniProt Q9UQB9 (whole entry, looked up): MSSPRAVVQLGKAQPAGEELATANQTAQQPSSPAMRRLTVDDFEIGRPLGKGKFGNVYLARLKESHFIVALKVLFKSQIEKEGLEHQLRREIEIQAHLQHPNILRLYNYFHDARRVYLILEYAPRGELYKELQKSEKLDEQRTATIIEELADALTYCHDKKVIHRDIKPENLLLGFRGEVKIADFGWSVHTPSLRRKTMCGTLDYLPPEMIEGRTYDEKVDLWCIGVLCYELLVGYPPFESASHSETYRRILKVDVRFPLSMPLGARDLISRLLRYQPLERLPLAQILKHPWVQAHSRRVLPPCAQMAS
Chain of UniProt Q9UK32 (whole entry, looked up): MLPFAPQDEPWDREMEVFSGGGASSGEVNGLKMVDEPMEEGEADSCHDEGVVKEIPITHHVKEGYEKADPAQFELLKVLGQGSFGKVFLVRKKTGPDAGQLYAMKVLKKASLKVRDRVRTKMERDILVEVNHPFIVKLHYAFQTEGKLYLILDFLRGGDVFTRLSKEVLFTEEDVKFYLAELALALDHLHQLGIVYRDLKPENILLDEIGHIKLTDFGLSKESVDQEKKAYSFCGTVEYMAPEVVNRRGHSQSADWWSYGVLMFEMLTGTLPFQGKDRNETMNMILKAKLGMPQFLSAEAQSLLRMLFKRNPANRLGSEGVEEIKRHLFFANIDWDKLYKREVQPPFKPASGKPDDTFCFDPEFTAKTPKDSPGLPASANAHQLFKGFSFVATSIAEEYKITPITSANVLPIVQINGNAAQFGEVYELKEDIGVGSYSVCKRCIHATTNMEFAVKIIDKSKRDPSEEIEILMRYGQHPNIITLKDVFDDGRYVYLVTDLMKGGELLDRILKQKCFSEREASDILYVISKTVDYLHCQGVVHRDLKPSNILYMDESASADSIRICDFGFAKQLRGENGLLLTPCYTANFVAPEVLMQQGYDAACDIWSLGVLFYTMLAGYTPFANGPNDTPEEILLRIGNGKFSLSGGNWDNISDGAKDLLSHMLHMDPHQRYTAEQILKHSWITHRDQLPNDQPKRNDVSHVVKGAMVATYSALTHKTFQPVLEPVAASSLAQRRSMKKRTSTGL
Chain of UniProt P30542 (whole entry, looked up): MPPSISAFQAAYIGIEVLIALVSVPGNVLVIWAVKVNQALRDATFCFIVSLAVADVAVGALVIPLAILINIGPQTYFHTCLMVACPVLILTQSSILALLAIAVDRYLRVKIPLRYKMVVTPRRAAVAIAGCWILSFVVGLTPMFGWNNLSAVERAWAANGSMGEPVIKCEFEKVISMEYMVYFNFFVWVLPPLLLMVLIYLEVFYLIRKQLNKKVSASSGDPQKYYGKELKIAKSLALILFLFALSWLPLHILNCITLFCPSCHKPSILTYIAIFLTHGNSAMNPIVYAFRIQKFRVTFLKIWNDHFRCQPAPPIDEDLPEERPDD
Chain of UniProt Q9Y616 (whole entry, looked up): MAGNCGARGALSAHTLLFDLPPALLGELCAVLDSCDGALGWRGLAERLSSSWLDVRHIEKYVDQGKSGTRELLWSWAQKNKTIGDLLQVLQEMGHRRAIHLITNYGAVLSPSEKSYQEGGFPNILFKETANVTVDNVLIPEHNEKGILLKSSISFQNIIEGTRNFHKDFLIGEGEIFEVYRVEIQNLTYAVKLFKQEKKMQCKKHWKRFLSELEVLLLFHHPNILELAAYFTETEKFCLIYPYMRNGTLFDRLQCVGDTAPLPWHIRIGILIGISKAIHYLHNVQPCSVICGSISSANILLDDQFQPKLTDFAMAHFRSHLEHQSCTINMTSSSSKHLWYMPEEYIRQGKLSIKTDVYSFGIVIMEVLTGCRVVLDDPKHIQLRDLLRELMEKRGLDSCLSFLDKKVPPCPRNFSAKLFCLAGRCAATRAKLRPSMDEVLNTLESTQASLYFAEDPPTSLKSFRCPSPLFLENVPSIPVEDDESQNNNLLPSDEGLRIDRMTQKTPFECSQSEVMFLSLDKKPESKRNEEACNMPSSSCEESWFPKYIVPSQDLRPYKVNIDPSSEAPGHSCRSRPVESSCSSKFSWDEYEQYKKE
Chain of UniProt Q9UPE1 (whole entry, looked up): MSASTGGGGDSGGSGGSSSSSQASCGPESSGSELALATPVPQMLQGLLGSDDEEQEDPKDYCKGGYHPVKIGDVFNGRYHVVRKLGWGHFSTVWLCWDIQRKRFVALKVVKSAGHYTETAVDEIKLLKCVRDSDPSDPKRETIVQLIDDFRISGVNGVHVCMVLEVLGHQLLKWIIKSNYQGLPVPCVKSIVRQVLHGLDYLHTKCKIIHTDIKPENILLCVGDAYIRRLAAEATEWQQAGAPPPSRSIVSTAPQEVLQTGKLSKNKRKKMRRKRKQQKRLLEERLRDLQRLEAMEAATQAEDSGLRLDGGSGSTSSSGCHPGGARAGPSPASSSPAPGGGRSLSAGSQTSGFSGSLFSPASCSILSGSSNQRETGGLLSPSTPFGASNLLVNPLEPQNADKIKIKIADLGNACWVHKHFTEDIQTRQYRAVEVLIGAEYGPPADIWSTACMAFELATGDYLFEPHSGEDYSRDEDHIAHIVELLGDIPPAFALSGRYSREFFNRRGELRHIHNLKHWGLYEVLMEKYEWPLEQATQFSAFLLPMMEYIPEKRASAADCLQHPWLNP

Structure (SMILES) | tested on | assay | system | conditions | measurement | result
CCC[C@@](N)(CO)CCc1ccc(OCCCCCC(C)C)cc1 | – | – | dog, plasma | oral, 5 mg/kg, fed | Cmax | 350 nM
CC(C)C[C@@H]1NC(=O)CNC(=O)[C@H]2CCCN2C(=O)[C@@H](CC(C)C)NC(=O)CNC(=O)[C@H](Cc2ccc(O)cc2)NC(=O)[C@@H](Cc2ccc(O)cc2)NC(=O)[C@@H](CCCCN)NC(=O)[C@H]([C@@H](C)O)NC(=O)[C@@H]2CCCN2C(=O)[C@H](CC(C)C)NC1=O | – | – | aqueous buffer | 18 h, pH 7.4 | thermodynamic solubility | 626 µM (≈ 753 µg/mL)
CC(C)(C)[C@H](NC(=O)/C=C/c1ccccc1)C(=O)N[C@H](C=O)C[C@@H]1CCCNC1=O | A549 | cell growth or viability, MTT | – | 24 h | CC50 | > 100 µM
Cc1nn(C)cc1-c1nc2c(N3CCN(Cc4ccc(Cl)cc4)CC3)c(Cl)cnc2[nH]1 | Ribosomal protein S6 kinase alpha-6, C-terminal kinase domain (RPS6KA6, Homo sapiens, UniProt Q9UK32) | binding, competition with immobilised ligand | – | 1 µM | remaining binding | 89%
CC(C)CC(=O)OC[C@H]1O[C@@](C#N)(c2ccc3c(N)ncnn23)[C@H](O)[C@@H]1O | ADORA1 (Homo sapiens, UniProt P30542) | cell-free assay | – | 20 µM | inhibition | 10%
[2H]c1c([2H])c([C@]2([2H])CCCN2C(=O)C(C)(C)Oc2ccc3cn[nH]c3c2)c([2H])c([2H])c1C([2H])([2H])[2H] | Aurora kinase C (AURKC, Homo sapiens, UniProt Q9UQB9) | binding, competition with immobilised ligand | – | 1 µM | remaining binding | 79%
CC(C)C[C@H](NC(=O)[C@H](Cc1ccccc1)NC(=O)[C@H](Cc1ccccc1)NC(=O)Cc1ccc(-c2ccccc2)cc1)C(=O)N[C@@H](CCCCN)C(=O)N[C@@H](CCCNC(=N)N)C(=O)N[C@H](C(=O)N[C@@H](Cc1c[nH]c2ccccc12)C(=O)N[C@@H](CCCCN)C(=O)N[C@@H](CCCNC(=N)N)C(=O)O)C(C)C | – | metabolic stability | monkey, liver microsomes | 45 min | compound remaining | 9.02%
N.N.[Cl][Pt][Cl] | KARPAS-422 | cell growth or viability, ATP luminescence | – | 10 µM, 72 h | inhibition | 100%
COc1ncccc1-c1cnn2ccc(N3CCN(C(=O)OC(C)C)CC3)nc12 | SRPK3 (Homo sapiens, UniProt Q9UPE1) | binding, competition with immobilised ligand | – | 1 µM | remaining binding | 88%
CC(C)C[C@H](NC(=O)[C@@H](NC(=O)/C=C/c1ccc(C(C)C)cc1)C(C)C)C(=O)N[C@H](C=O)C[C@@H]1CCCNC1=O | A549 | cell growth or viability, MTT | – | 24 h | CC50 | > 100 µM
N=c1c2c(-c3ccccc3)c(-c3ccccc3)n(Cc3ccccc3)c2ncn1[C@H]1CC[C@H](O)CC1 | – | – | male Sprague-Dawley rat, plasma | intravenous, 2 mg/kg, single dose | Vd | 9.8 L/kg
COCC1=N[C@@]2(O)[C@H](C(=O)N(C)OC)[C@@H](c3ccccc3)[C@]3(c4ccc(OC)cc4)Oc4cc(OC)cc(OC)c4[C@]23N1 | A549-ACE2 | cell growth or viability, ATP luminescence | – | 48 h | CC50 | 0.2 µM
Nc1ncc(-c2nc(N3CCOCC3)nc(N3CCOCC3)n2)c(C(F)F)n1 | IRAK3 (Homo sapiens, UniProt Q9Y616) | binding, competition with immobilised ligand | – | 10 µM | remaining binding | 83%
CN[C@@H]1C[C@H]2O[C@@](C)([C@@H]1OC)n1c3ccccc3c3c4c(c5c6ccccc6n2c5c31)C(=O)NC4 | NCI-H1975 | cell growth or viability, MTT | – | 25 µg | viability | 36.5%
CC[C@@H]1NC(=O)[C@H]([C@@H](C)CC)NC(=O)[C@H](CC(C)C)NC(=O)[C@@H]2CCCN2C(=O)[C@@H](CC(C)C)NC(=O)[C@H]2CCCN2C(=O)[C@@H](Cc2ccc(O)cc2)NC(=O)CSC[C@@H](C(=O)O)NC(=O)[C@H]([C@@H](C)O)NC(=O)[C@H]([C@@H](C)CC)NC(=O)[C@H](C)NC1=O | – | – | aqueous buffer | pH 7.4 | solubility | 777 µM (≈ 955 µg/mL)
C#Cc1ccc2c(c1)C(c1ccccn1)=NCc1c(-c3cnco3)ncn1-2 | – | – | water | 40 min, 37 °C | kinetic solubility | 182 µg/mL (≈ 518 µM)
CC[C@H](C)[C@H]1C(=O)N[C@@H]([C@@H](C)O)C(=O)NCC(=O)NCC(=O)N[C@@H](C)C(=O)N[C@@H](CC(C)C)C(=O)N[C@@H](C(C)C)C(=O)N[C@@H](CC(C)C)C(=O)N2CCC[C@@H]2C(=O)N[C@H](Cc2ccc(O)cc2)C(=O)N[C@H](CC(C)C)C(=O)N1C | – | – | aqueous buffer | 18 h, pH 7.4 | thermodynamic solubility | 475 µM (≈ 528 µg/mL)
COc1ccc([C@@]23Oc4cc(OC)cc(OC)c4[C@@]24NC(C)=N[C@@]4(O)[C@H](C(=O)N(C)OC)[C@H]3c2ccccc2)cc1 | A549-ACE2 | cell growth or viability, ATP luminescence | – | 48 h | CC50 | 0.2 µM

Some of these lines once more:
Structure (SMILES) | tested on | assay | system | conditions | measurement | result
CC(C)C[C@H](NC(=O)[C@H](Cc1ccccc1)NC(=O)[C@H](Cc1ccccc1)NC(=O)Cc1ccc(-c2ccccc2)cc1)C(=O)N[C@@H](CCCCN)C(=O)N[C@@H](CCCNC(=N)N)C(=O)N[C@H](C(=O)N[C@@H](Cc1c[nH]c2ccccc12)C(=O)N[C@@H](CCCCN)C(=O)N[C@@H](CCCNC(=N)N)C(=O)O)C(C)C | – | metabolic stability | monkey, liver microsomes | 45 min | compound remaining | 9.02%
[2H]c1c([2H])c([C@]2([2H])CCCN2C(=O)C(C)(C)Oc2ccc3cn[nH]c3c2)c([2H])c([2H])c1C([2H])([2H])[2H] | Aurora kinase C (AURKC, Homo sapiens, UniProt Q9UQB9) | binding, competition with immobilised ligand | – | 1 µM | remaining binding | 79%
